Experimental data of several laboratories.
Numbers after ± are the reported error.

CC(C)(O)c1ncc([S@](N)(=O)=NC(=O)Nc2c3c(cc4c2CCC4)CCC3)s1 gave a Cmax of 3940 ng/mL (healthy human, fed; oral, 50 mg twice daily, day 1, tablet formulation, geometric mean).
The liver radioactivity of CCN(CC)c1ccc2c(-c3ccccc3C(=O)OCCOCCOCC[18F])c3ccc(=[N+](CC)CC)cc-3oc2c1 is reported as 30 to 35% (PET imaging; rat, liver; dose not given, 55 min post injection; reference: value at 5 min).
For CC[C@H](C)[C@H](NC(=O)[C@H](CC(C)C)NC(=O)[C@H](Cc1c[nH]c2ccccc12)NC(=O)[C@H](C)NC(=O)[C@@H](NC(=O)[C@H](Cc1ccccc1)NC(=O)[C@H](CC(=O)O)NC(=O)[C@H](CCCNC(=N)N)NC(=O)[C@H](C)NC(=O)[C@H](C)NC(=O)[C@H](CC(C)C)NC(=O)[C@H](C)NC(=O)[C@H](CC(=O)O)NC(=O)[C@H](CC(C)C)NC(=O)[C@@H](NC(=O)[C@@H](NC(=O)[C@H](C)NC(=O)[C@H](CC(C)C)NC(=O)[C@H](CCC(=O)O)NC(=O)[C@H](CO)NC(=O)[C@H](CO)NC(=O)[C@H](Cc1ccccc1)NC(=O)[C@@H](NC(=O)CNC(=O)[C@H](CCC(=O)O)NC(=O)CNC(=O)[C@@H](N)Cc1c[nH]cn1)[C@@H](C)O)[C@@H](C)O)[C@@H](C)CC)[C@@H](C)CC)C(=O)N[C@@H](C)C(=O)N[C@H](C(=O)N[C@@H](CCCCN)C(=O)N[C@H](C(=O)N[C@H](C(=O)N[C@@H](CC(=O)O)C(=O)N[C@@H](CCCCN)C(=O)N[C@@H](CCCCN)C(=O)O)[C@@H](C)O)[C@@H](C)CC)[C@@H](C)O, the tmax was 8 h (healthy human subjects, plasma; subcutaneous, 5 mg once weekly, day 36 after 6 doses, steady state, median).
Under “treatment-related adverse event incidence”, Cn1c(=O)oc2ccc(-c3ccc(CC(C#N)NC(=O)C4CNCCCO4)c(F)c3)cc21 (stereo not shown) is recorded as 3.7% (measured: acne; human volunteers; oral, dose not given).
With C#CCOc1ccc(/C=C2\SC(=O)N(CC(=O)NCc3ccccc3)C2=O)cc1 the correlation volume was 3260 cm³/mol (inverse Kirkwood-Buff integrals; binary solvent mixture; concentration not given, 298.15 K, mole fraction x1 0.35).
The clearance of COC(=O)c1ccc2c(c1)NC(=O)/C2=C(\Nc1ccc2c(c1)CCN2C(=O)CN1CCOCC1)c1ccccc1 is reported as 31.2 mL/min/kg (beagle dog, plasma; intravenous, 2 mg/kg).
The amorphous solubility of CN(C)S(=O)(=O)NC(=O)c1ccc2c(C3CCCCC3)c3n(c2c1)CC(C(=O)N1CCOCC1)=Cc1ccccc1-3 is reported as < 1 µg/mL (phosphate buffer; pH 6.5).
CC(=O)N[C@H](CSSC[C@H](N)C(=O)O)C(=O)N[C@H](C)C(=O)N[C@H](CCCNC(=N)N)C(=O)N[C@H](CCCNC(=N)N)C(=O)N[C@H](CCCNC(=N)N)C(=O)N[C@H](C)C(=O)N[C@H](CCCNC(=N)N)C(N)=O: “volume of distribution at steady state” 112 L (human, healthy males, plasma; intravenous, 0.5 mg, geometric mean).
For COc1cc(/C=C/C(=O)N2CCc3ccccc3C2)ccc1O[11CH3], the uptake was 11.4 ± 0.11 %ID/cc (PET-CT imaging; C57BL/6 mouse, male, spleen; intravenous, 5 min).
Under “body weight loss”, Cc1ccc(CN2C(=O)/C(=N\c3ccc(Cl)cc3Br)c3ccccc32)cc1 is recorded as ~10% (mouse; 100 to 200 mg/kg, 7 days).
Under “mean absorbed dose”, NC12CNCCNCC(NCc3ccc(CNC(=O)CCCC(=O)NCc4ccc(-c5nncnn5)cc4)cc3)(CNCCNC1)CNCCNC2.[64Cu+2] is recorded as 0.0382 rad/mCi (OLINDA dosimetry; uterus; 48 h pretargeting interval, with: huA33-TCO pretargeting).
With Cc1ccc(OCC(=O)O)cc1 the t1/2 was 3.71 h (Sprague-Dawley rat Crl:CD(SD), male, plasma; oral, 100 mg/kg/day of parent drug, day 90, 90-day repeated dosing).
For COc1ccc(C=NCCCN(C)CCN(C)CCCN=Cc2ccc(OC)cc2[O-])c([O-])c1.[67Ga+3], “tissue uptake ratio” read 23.3 ± 2.7 (rat; intravenous, 2 h; reference: heart over blood).
The intact compound of NC(=O)[C@H](Cc1ccccc1)N[11C](=O)OCc1ccccc1 is reported as 97.6% (male Wistar rat, spinal cord supernatant; intravenous, 32.8 MBq, 15 min).
The excreted amount of CNc1cc(OC)c(Nc2nccc(-c3cn(C4CC4)c4ccccc34)n2)cc1NC(=O)CCSCC(NC(C)=O)C(=O)O (stereo not shown) is reported as 6.83% (human, urine and feces; 0 to 96 h urine, 0 to 240 h feces; reference: dose).
For CCc1cc2c(N3CCN([11C](=O)c4ccc(-c5ccccc5)cc4)CC3)nc(N3CCNC(=O)C3)nc2s1, the SUVmax was 0.25 (PET; Wistar rats, male, brain; intravenous, with: tariquidar 15 mg/kg iv, 30 min before).
For CC/C=C\C/C=C\C/C=C\C/C=C\C/C=C\CCCCOC(CC)C(=O)O (stereo not shown), the tissue concentration was 4 µg equivalents/g tissue (radioactivity, 14C-labelled; Wistar rat, male, subcutaneous fat; oral, 100 mg/kg, 3 days).
COc1ccc(-c2csc(N/N=C(\C)c3cc(O)cc(O)c3)n2)cc1: “concentration after storage” 965 ng/mL (LC-MS/MS; rat plasma; 1000 ng/mL, 45 days, long-term storage at -70 °C).
The remaining compound of COc1cc(NC(C)=O)c2c(c1O)-c1c(OC)c(OC)cc3c1C(C2)N(C)CC3 (stereo not shown) is reported as 93.7 ± 1.9% (rat liver homogenate; 100 µg/mL, 4 h, room temperature, short-term storage).
O=C(NCCCN(CCCCN(CCCNC(=O)c1cccc(=O)n1[O-])C(=O)c1cccc(=O)n1[O-])C(=O)c1cccc(=O)n1[O-])c1cccc(=O)n1[O-].[89Zr+4] has a tracer uptake of 5.99 %ID/g (mouse, intestine; 10 min).
O=C([O-])CN1CCN(CC(=O)[O-])CCN(CC(=O)NCC2CCC(C(=O)NC(Cc3ccc4ccccc4c3)C(=O)NCCCCC(NC(=O)NC(CCC(=O)O)C(=O)O)C(=O)O)CC2)CCN(CC(=O)[O-])CC1.[44Sc+3] (stereo not shown) has an intact complex of 96.7 ± 0.8% (transmetallation stability; 24 h, 37 °C, with: Ca2+ 10 mM).
CCCC[C@H](NC(C)=O)C(=O)N[C@H]1CC(=O)NCCCC[C@@H](C(=O)N[C@@H](C(=O)N2CCC[C@@H]2C(N)=O)C(C)C)NC(=O)[C@H](Cc2c[nH]c3ccccc23)NC(=O)[C@H](CCCN=C(N)N)NC(=O)[C@@H](Cc2ccc3ccccc3c2)NC(=O)[C@@H]2CCCN2C1=O gave an AUC of 14100 ± 2200 ng·h/mL (Beagle dog, both sexes, plasma; subcutaneous, once daily, 0.75 mg/kg, day 28).
For Cc1cc(O)cc(O)c1C(=O)c1c2c3c(c(O)cc(C)c3oc1=O)C(=O)c1c(O)cc(O)cc1-2, the Papp A→B was 2.13 ×10⁻⁶ cm/s (Caco-2; 100 µM, 3 h, pH 7.4).
N=C(N)NCCC[C@@H]1NC(=O)[C@H](Cc2c[nH]c3ccccc23)NC(=O)[C@@H](CC2CCCCC2)NC(=O)[C@@H]2CCCN2C(=O)[C@@H](NC(=O)CCc2ccccc2)CCCNC1=O — result for “absorption rate constant”: 2.35 h⁻¹ (C57BL/6J mice, brain; subcutaneous, 1 mg/kg, two-compartment model).
OC1(C(F)(F)F)CCN(c2nc(Nc3ccnc(C(F)(F)F)c3)nc(-c3cccc(C(F)(F)F)n3)n2)C1 (stereo not shown): “Cmax accumulation ratio” 5 (monkey, both sexes; oral, 1 mg/kg daily for 14 days; reference: day 14 over day 1).
For O=C(Nc1nccs1)C(c1cc(F)ccc1O)N1Cc2ccccc2C1=O (stereo not shown), the CL/F was 633 mL/min/kg (female FVB mouse, plasma; oral, 20 mg/kg, single dose).
Cc1ccc(-c2ccc(-c3cc4sccc4o3)cn2)nc1: “radiative decay rate constant” 0.59 ns⁻¹ (TCSPC; hexanes).
CCCC[C@H](NC(=O)CNC(=O)CNC(=O)CN1CCN(CC(=O)O)CCN(CC(=O)O)CC1)C(=O)N[C@H]1CC(=O)NCCCC[C@@H](C(N)=O)NC(=O)[C@H](Cc2c[nH]c3ccccc23)NC(=O)[C@H](CCCNC(=N)N)NC(=O)[C@@H](Cc2ccccc2)NC(=O)[C@H](Cc2c[nH]cn2)NC1=O [gallium-67 labelled]: “tumour to tissue uptake ratio” 62.9 (C57 mice, female, B16/F1 melanoma, tumour over blood; intravenous, 0.037 MBq, 2 h).
COc1cccc(C=NCCCN(C)CCN(C)CCCN=Cc2cccc(OC)c2[O-])c1[O-].[67Ga+3]: “tissue uptake ratio” 7.6 ± 1 (rat; intravenous, 1 min; reference: heart over blood).
Under “tumour to tissue ratio”, CC(C)[C@H](NC(=O)[C@@H]1CCCN1C(=O)[C@H](CCCNC(=N)N)NC(=O)[C@H](CS)NC(=O)[C@H](Cc1c[nH]c2ccccc12)NC(=O)[C@H](CCCNC(=N)N)NC(=O)[C@@H](Cc1ccccc1)NC(=O)[C@H](Cc1c[nH]cn1)NC(=O)[C@H](CCC(=O)O)NC(=O)[C@H](CS)NC(=O)[C@H](CS)NC(=O)[C@@H]1CC(=O)N[C@@H](CCCNC(=N)N)C(=O)NCC(=O)N[C@@H](CC(=O)O)C(=O)N[C@H](Cc2ccc(O)cc2)C(=O)N1)C(N)=O [technetium-99m labelled] is recorded as 8.83 (C57 mouse, female, B16/F1 melanoma; intravenous, 0.037 MBq, 24 h; reference: tumour over liver).
For O=C(CCc1ccc(CNC(C(=O)OC2CCCC2)C2CCCCC2)cn1)NO (stereo not shown), the Tmax was 0.5 h (human, plasma; oral, 20 mg, single dose, median).
COc1ccc(OC)c(NCc2ccc3nc(N)nc(N)c3c2Cl)c1 has a haemolysis of 6.9% (haemolysis; sheep; 25 µM, 2 h, pH 7.2).
O=C(O)C1OC(OC2C(COS(=O)(=O)O)OC(OC3C(C(=O)O)OC(OC4C(COS(=O)(=O)O)OC(OC5C(C(=O)O)OC(OC6C(COS(=O)(=O)O)OC(OC7C(C(=O)O)OC(OC8C(COS(=O)(=O)O)OC(OC9C(C(=O)O)OC(OC%10C(COS(=O)(=O)O)OC(OC%11C(C(=O)O)OC(Oc%12ccc([N+](=O)[O-])cc%12)C(O)C%11O)C(NS(=O)(=O)O)C%10O)C(OS(=O)(=O)O)C9O)C(NS(=O)(=O)O)C8O)C(OS(=O)(=O)O)C7O)C(NS(=O)(=O)O)C6O)C(OS(=O)(=O)O)C5O)C(NS(=O)(=O)O)C4O)C(OS(=O)(=O)O)C3O)C(NS(=O)(=O)O)C2OS(=O)(=O)O)C(O)C(O)C1OC1OC(COS(=O)(=O)O)C(O)C(O)C1NS(=O)(=O)O (stereo not shown) has a total protein of 6.28 ± 0.11 g/dL (rats, serum; intravenous, 3600 µg/kg/day for 7 days, day 8).
CCc1c2c(nc3ccc(O)cc13)-c1cc3c(c(=O)n1C2)COC(=O)[C@]3(O)CC has an AUC(0-inf) of 570 ng·h/mL (human patients, plasma; intravenous, 42 mg/m^2 of parent drug).
